# Published values collected from several papers.
# Numbered parts are unrelated; each lists some results of a single study. Positions count from the first letter of the parent shown.

# Study 1 — technique: DHFR PCA, dose-response; sample: yeast; setting: Hill fit, mean, not affinity; added: (+)-ABA, dose series; reading: lower = more sensitive
# Target: ABI1, truncated, D143A, DHFR fusion (Arabidopsis thaliana, UniProt P49597)
# Parent: PYL1, truncated, DHFR fusion (Arabidopsis thaliana, UniProt Q8VZS8); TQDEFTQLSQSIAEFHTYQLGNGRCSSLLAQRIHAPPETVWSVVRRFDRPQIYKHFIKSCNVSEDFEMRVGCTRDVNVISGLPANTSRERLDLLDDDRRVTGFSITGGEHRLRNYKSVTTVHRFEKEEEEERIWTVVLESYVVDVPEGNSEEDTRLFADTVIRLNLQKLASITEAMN
Variant,ABA EC50 [µM]
T106Y,2.76
Q167G,3.16
Q10Y,8.07
S150C,8.59
V143L,41.5
M68G,8.16
G107I,658
E139T,0.362
F66V,7.51
C25R,385
D48K,188
T160I,19.8
D3C,3.55
T1L,1.96
F124W,1.22
R155I,3.11
R163T,4.14
E129Q,2.33
S11F,3.06
D144E,14.9
G81Q,244
F66K,6.38
S63P,3.15

# Study 2 — target: CCNB3, cyclin fold, Cln2 fusion (human); technique: yeast growth competition, sequencing; sample: yeast; setting: weak parent motif; relative to: not given; reading: higher = stronger binding
# Parent: E2F7 docking peptide (human); SSAQRRLEIPSGG; partner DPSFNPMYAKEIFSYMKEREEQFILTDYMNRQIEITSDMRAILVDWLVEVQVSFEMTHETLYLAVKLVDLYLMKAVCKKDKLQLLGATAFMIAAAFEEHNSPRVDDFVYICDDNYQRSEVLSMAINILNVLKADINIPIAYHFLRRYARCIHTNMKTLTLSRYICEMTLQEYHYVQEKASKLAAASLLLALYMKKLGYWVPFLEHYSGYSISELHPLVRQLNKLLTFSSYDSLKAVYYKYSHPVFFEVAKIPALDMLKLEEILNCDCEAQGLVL
Variant,normalised enrichment score
SSAQARLEIPSGG [R5A],0.194
SSAQRRLEIPSAG [G12A],-0.338
SSAQRRLEIASGG [P10A],-0.0635
SSAQARAEIPSGG [R5A L7A],0.162
SSAQRRLEFPSGG [I9F],0.445
SSAQKRLEIPSGG [R5K],-0.328
SSAQRRLEIPAGG [S11A],0.174
SSAQRRLELPSGG [I9L],0.0275
SSAQRRLEAPSGG [I9A],0.332
SAAQRRLEIPSGG [S2A],-0.115

# Study 3 — technique: RNA Bind-n-Seq; molecule type: RNA; sample: in vitro; tested at: 20 nM; setting: 6-mer, flanks averaged, single round; added: 150 mM LiCl; relative to: input library; reading: higher = stronger binding
# Target: TAR DNA-binding protein 43, full length, His tag (TARDBP, Homo sapiens, UniProt Q13148, residues 1-414)
Sequence,6-mer enrichment (R)
CCCUUC,1.08
AAGGAA,0.872
AUUGGU,1.08
CAAGGG,1
UGGUCC,0.99
GAUGUU,1.11
AUAGCC,0.895
UGAAUA,0.923

# Study 4 — technique: protein-binding microarray; molecule type: double-stranded DNA, one strand shown; sample: in vitro; tested at: not given; reading: higher = stronger binding
# Target: Protein C-ets-1 (ETS1, Homo sapiens, UniProt P14921, residues 1-441, full length assumed)
# Setting: k-mer, scored over probes, only values ≥0.25
# Target sequence (chain): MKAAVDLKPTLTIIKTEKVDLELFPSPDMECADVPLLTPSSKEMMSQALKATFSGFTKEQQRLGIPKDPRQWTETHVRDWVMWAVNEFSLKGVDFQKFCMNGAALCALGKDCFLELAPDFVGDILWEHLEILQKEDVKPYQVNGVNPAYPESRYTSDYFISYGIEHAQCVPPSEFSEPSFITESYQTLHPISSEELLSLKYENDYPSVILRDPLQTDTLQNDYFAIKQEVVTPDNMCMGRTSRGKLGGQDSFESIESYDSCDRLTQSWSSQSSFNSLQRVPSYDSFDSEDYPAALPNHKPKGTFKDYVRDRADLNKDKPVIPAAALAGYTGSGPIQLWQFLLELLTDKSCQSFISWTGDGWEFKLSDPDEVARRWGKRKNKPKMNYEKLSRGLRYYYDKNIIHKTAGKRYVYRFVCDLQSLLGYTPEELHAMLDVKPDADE
Sequence,E-score
ATCCCCCG,0.313
ACATCCGT,0.467
AAGACCGG,0.269
CATCCTTC,0.385
CCGTTTTA,0.268
TACCGGGA,0.358
CAGGATAC,0.418
TAGGCGGA,0.356
ACCGGTAG,0.374
AACATCCG,0.49
ACTGGAAA,0.319
CCCCGTCA,0.27
GAGCGGAC,0.293
GAAGTACC,0.266
TAGCCGGA,0.342
GGATTTTA,0.258
AGGAAATG,0.45
CGGACGAG,0.294
TATCGGAA,0.274
TACCGGAA,0.49
CGGATCTC,0.35

# Study 5 — technique: protein-binding microarray; molecule type: double-stranded DNA, one strand shown; sample: in vitro; tested at: 940 nM top; setting: 60-bp whole probe; added: salmon DNA 0.4 mg/ml; relative to: random background probes; reading: higher = stronger binding; constant ends, left off below: GCCTAGCAC … GTCTTGATTCGCTTGACGCTGCTG
# Target: Interferon regulatory factor 5, full length, phosphomimetic (IRF5, Homo sapiens, UniProt Q13568-2, residues 1-514, S451D/S453D/S456D/S462D)
Sequence,fitted relative affinity
TTAGGTCTACTTTTCCTTTAGTGCTAG,0.252 z-score
GACCGTATCGACTTTCGGGACGTGCTA,2.66 z-score
TCAACCATCTCATATAAAACTGTGCTA,0.588 z-score
TCATCTCTCCATGTGTTACTGTGCTAG,1.04 z-score
TCACTCATGGCTTTGTAACTGTGCTAG,0.151 z-score
TCAATTTTGGTTTTCATACTGTGCTAG,1.65 z-score
TTAGGTAGCGGGTTTCGGTTAGTGCTA,5.69 z-score
CAAGTTTCTCCTTTGTAAATGTGCTAG,3.79 z-score
CTTACTTTATGTAGGAAGTCGTGCTAG,-0.362 z-score
TTAGATATCAGACTGGATAAGTGCTAG,-0.457 z-score
TTAGATCTCATTTTCGATTAGTGCTAG,2 z-score
GACGATTTCAGTTTCCAGACGTGCTAG,0.647 z-score
TTAAAACTGAGACTGGATTAGTGCTAG,-0.0338 z-score
TTAGGACTTGACACTGGGTTAGTGCTA,-0.469 z-score
TTACTTCCCAATTGTCTTTTCGTGCTA,1.66 z-score
TTGTGTGTGTGTTTGTGTGTGTGCTAG,0.307 z-score
TCATCTGTCCCTCTGTGACTGTGCTAG,0.264 z-score
GACGGTCTCCTTATACTGACGTGCTAG,0.518 z-score
TCACATTTGGAAAATGTAACTGTGCTA,0.0749 z-score
GACGATTTCAATTTCGAGACGTGCTAG,0.615 z-score
TTATGACTGGGACTGGGTTAGTGCTAG,-0.214 z-score
TTAGGTATCGACACTGAGTTAGTGCTA,4.55 z-score
TTAGATATCGGGAGTGGATTAGTGCTA,0.727 z-score
GGGAGCTATTAATTATTTTGGTGCTAG,0.0503 z-score
GACGGTTTCGGTATCGGGCCGTGCTAG,13.3 z-score

# Study 6 — technique: protein binding microarray; molecule type: double-stranded DNA, one strand shown; sample: in vitro; tested at: not given; relative to: not given; reading: higher = stronger binding
# Target: Histone acetyltransferase KAT6A, both winged helices, GST fusion (KAT6A, Homo sapiens, UniProt Q92794, residues 1-181)
# Setting: 8-mer, flanks averaged, mean of 2 arrays, mostly near background
# Target sequence (chain): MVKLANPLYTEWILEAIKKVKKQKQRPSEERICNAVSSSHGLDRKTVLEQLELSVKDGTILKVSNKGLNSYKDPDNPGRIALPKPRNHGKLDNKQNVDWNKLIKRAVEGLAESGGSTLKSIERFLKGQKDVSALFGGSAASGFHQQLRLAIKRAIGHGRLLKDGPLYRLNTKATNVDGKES
Sequence,E-score
ACATATAT,0.0156
CTCGTGAC,-0.0158
ACGATGAT,-0.0138
ACCAGAAG,-0.248
CAATGAAC,0.0197
GTTCATGA,-0.0716
ACGTTGGG,-0.275
ACGGAAAA,0.211
GAGCCAAC,-0.206
CCCCATAC,-0.0909
CCTGGGAC,-0.111
AGCATAAT,0.0923
CAACCTGA,-0.195
TATTGAGA,-0.156
CAGTCGCG,0.202
CAGGTCTC,-0.141
CCCCCTTA,-0.222
ATTCTACC,-0.0555
AGCCATAC,-0.122
GCAGGGGA,-0.0323
AGGGGAAA,-0.227
ACAATAAT,-0.0164
ACGGCTGG,0.0888
AGGCATTC,-0.163
CCGTCGAG,0.209

# Excerpt of the above (study 5):
Sequence,fitted relative affinity
CAAGTTTCTCCTTTGTAAATGTGCTAG,3.79 z-score
CTTACTTTATGTAGGAAGTCGTGCTAG,-0.362 z-score
TTAGATATCAGACTGGATAAGTGCTAG,-0.457 z-score
TTAGATCTCATTTTCGATTAGTGCTAG,2 z-score
GACGATTTCAGTTTCCAGACGTGCTAG,0.647 z-score
TTAAAACTGAGACTGGATTAGTGCTAG,-0.0338 z-score
TTAGGACTTGACACTGGGTTAGTGCTA,-0.469 z-score
